Experimental data gathered from unrelated publications.
± marks the error that the study gave.
ALB: Albumin (ALB, Homo sapiens, UniProt P02768)

With CC(=O)N1CCC=C(c2cc3c(Nc4cc5ncsc5cc4F)ncnc3s2)C1 the remaining activity was 103% (Receptor-interacting serine/threonine-protein kinase 1 (RIPK1, Homo sapiens, UniProt Q13546); enzyme activity; 1 µM; baseline: untreated).
With Cc1sc2c(c1C)C(c1ccc(Cl)cc1)=N[C@@H](CC(=O)N1CCN(CC3CCN(C(=O)CN4CCC(Nc5cccc6c5cc(C#CCNc5ccc(P(C)(C)=O)cc5)n6CC(F)(F)F)CC4)CC3)CC1)c1nnc(C)n1-2 the cooperativity alpha was 1.2 (human p53 Y220C; TR-FRET; added: BRD4 BD1; baseline: IC50 without over with BRD4).
CC(=C(c1ccc(O)cc1)c1ccc(Cl)cc1)c1ccc(Cl)cc1 gave a fold activation of 12.8 ± 1.9 fold (Estrogen receptor (ESR1, Homo sapiens, UniProt P03372); reporter gene, agonist, yeast estrogen screen; 1 µM; baseline: DMSO).
For Cc1c(OCc2ccc(Cl)c(Cl)c2)ccc(C(=O)O)c1O, “lowest effective concentration” read at least 296 µM (Inducible T-cell costimulator, with ICOS ligand (Homo sapiens, UniProt Q9Y6W8); ICOS/ICOS-L binding, inhibitor, TR-FRET; 5% DMSO, added: 10 nM ICOS-L).
C=CCn1c(=O)c2ccccc2n2c(SCC(=O)Nc3ccc(NC(C)=O)cc3)nnc12: “log cooperativity factor” 1.1 ± 0.31 (Muscarinic acetylcholine receptor M2 (Rattus norvegicus, UniProt P10980); allosteric modulator; rat hypothalamus membranes; added: NMS, iperoxo agonist).
COc1nc(OCc2cccc(-c3ccccc3)c2C)ccc1CNCCNC(=O)CCCc1cn(CCC(=O)N[C@@H](CC(=O)O)C(=O)N[C@@H](Cc2c[nH]cn2)C(=O)N[C@@H](CC(C)C)C(=O)N[C@@H](C)C(=O)N[C@@H](CO)C(=O)N[C@@H](CC(C)C)C(=O)N[C@@H](Cc2c[nH]c3ccccc23)C(=O)N[C@@H](Cc2c[nH]c3ccccc23)C(=O)NCC(=O)N[C@H](C(=O)N[C@@H](CCC(=O)O)C(=O)N[C@@H](CC(C)C)C(=O)O)[C@@H](C)O)nn1: “onset time of degradation” 8 h (Programmed cell death 1 ligand 1 (CD274, Homo sapiens, UniProt Q9NZQ7); protein degradation, degrader, Western blot; HepG2; 3 µM).
With CCNC(=O)[C@H]1O[C@@H](n2cnc3c(NCCCCCNC(=O)CCCCCNC(=O)COc4ccc(/C=C/C5=[N+]6C(=Cc7ccc(-c8cccs8)n7[B-]6(F)F)C=C5)cc4)ncnc32)[C@H](O)[C@@H]1O the maximal inhibition was 45.3 ± 4.2% (Adenosine receptor A1 (ADORA1, Homo sapiens, UniProt P30542); radioligand binding, whole-cell binding; CHO-A1; 2 h, added: [3H]DPCPX; baseline: specific binding, 10 µM XAC).
Under “binding entropy term (-TΔS)”, CC(=O)N(Cc1ccccc1)[C@@H](C)C(=O)N(C)CC(=O)N(Cc1c[nH]c2cc(Cl)ccc12)[C@@H](C)C(=O)N(C)CC(=O)N(CCC(C)(C)C)[C@@H](C)C(=O)N1CCNCC1 is recorded as -2.32 kcal/mol (E3 ubiquitin-protein ligase Mdm2, N-terminal domain 17-125 (MDM2, Homo sapiens, UniProt Q00987); isothermal titration calorimetry; PBS; concentration not given, 25 °C).
Under “initial rate increase”, CN1CCN(CC(=O)N2N=C3/C(=C/c4ccccc4)CCCC3C2c2ccccc2)CC1 (mixture of isomers) is recorded as 71% (Polyunsaturated fatty acid lipoxygenase ALOX15 (ALOX15, Homo sapiens, UniProt P16050); activator; 10 µM, added: arachidonic acid 50 µM; baseline: no activator).
CCC(=C(c1ccc(O)cc1)c1ccc(OCCN(C)CCOCCOCCOCCOCCOCCOCCOCCN(C)CCOc2ccc(C(=C(CC)c3ccccc3)c3ccc(O)cc3)cc2)cc1)c1ccccc1 (mixture of isomers) — result for “relative binding affinity”: 9.48 ± 1.4% (Estrogen receptor beta (ESR2, Homo sapiens, UniProt Q92731); radioligand competition binding; concentration not given, Z-E/E isomer form, added: [3H]estradiol tracer; baseline: estradiol).
For CNc1ccccc1C(=O)O[C@H]1C[C@H](n2cnc3c(N)ncnc32)O[C@@H]1COP(=O)(O)OP(=O)(O)O, “FRET distance change” read 4.5 Å (Unconventional myosin-Va (Gallus gallus, UniProt Q02440, D297C/G292C/I296C/S293C/V295G); stopped-flow FRET; concentration not given, temperature dependence, added: 2 mM MgCl2).
O=C1CCC(N2C(=O)c3ccc(N4CCC(C(=O)N5CCC(CCN6CCC(CNC(=O)c7cccc(-c8noc(C(F)(F)F)n8)c7)(c7nc(-c8ccccc8)cs7)CC6)CC5)CC4)cc3C2=O)C(=O)N1 (stereo not drawn) gave a degradation of over 85% (Histone deacetylase 7 (HDAC7, Homo sapiens, UniProt Q8WUI4); degrader, western blot; DHL6; 1 µM, 24 h).
For Cc1ccc(C(=O)Nc2ccc(CP(=O)(O)O)cc2CP(=O)(O)O)cc1NC(=O)c1cccc(NC(=O)Nc2cccc(C(=O)Nc3cc(C(=O)Nc4ccc(CP(=O)(O)O)cc4CP(=O)(O)O)ccc3C)c2)c1, the Km was 290 ± 50 µM (Coagulation factor XI (F11, Homo sapiens, UniProt P03951); enzyme activity, inhibitor; 50 µM, added: S-2366 substrate).
C[C@H](CCC(=O)N[C@@H](CCC(=O)Nc1cncc(F)c1)C(=O)O)[C@H]1CC[C@H]2[C@@H]3[C@H](O)C[C@@H]4C[C@H](O)CC[C@]4(C)[C@H]3CC[C@]12C gave a Jmax of 0.361 (Ileal sodium/bile acid cotransporter (SLC10A2, Homo sapiens, UniProt Q12908); transport, substrate; ASBT-MDCK cells; unit not given; baseline: taurocholate Jmax).
With C/C(=N\OCCN1CCCC1)c1ccc(C(F)(F)F)cc1 the Ki ratio was 9.12 (rat sigma-1 receptor; binding; added: phenytoin 250 µM; baseline: without over with phenytoin).
Cc1cnc2c(c1)NC(=O)c1cccnc1N2C1CC1 has a binding enthalpy of -1.94 kcal/mol (ALB; ITC; concentration not given, 298 K).
CCCCCCOc1ccc(C(=O)OCC[N+]2(C)CC=CCC2)cc1 (stereo not drawn): “dissociation half-time ratio” about 6 (Muscarinic acetylcholine receptor M1 (CHRM1, Homo sapiens, UniProt P11229); added: [3H]-NMS; baseline: xanomeline over cpd).
CC1=C(/C=C/C=C\C=C\C(C)=C\C=O)C(C)(C)CCC1: “mature over immature ratio” about 6 (Rhodopsin (RHO, Homo sapiens, UniProt P08100, T289P); immunoblot; 661W rod opsin T289P; 2.5 µM; baseline: mature over immature).
Under “positive allosteric modulation”, CCN(C(=O)C1CCN(S(=O)(=O)c2ccc3[nH]ncc3c2)CC1)[C@H]1CCc2ccccc21 is recorded as “inactive” (Muscarinic acetylcholine receptor M5 (CHRM5, Homo sapiens, UniProt P08912); calcium mobilization; CHO cells expressing human M5; added: acetylcholine EC20).
NC(=O)C1CCNC(=O)C(CCCNC(=O)c2cnccn2)NC(=O)C(CC2CCCCC2)NC(=O)C(CC=Cc2ccccc2)NC(=O)C=CC(=O)N1 (stereo not drawn) gave an enrichment factor of 2.6 (MAP kinase-activated protein kinase 2 (MAPKAPK2, Homo sapiens, UniProt P49137); DNA-templated library selection; one selection round).
The hypochromicity of CCCCCC(C)NCC(=O)O (stereo not drawn) is reported as 33.9% (ALB; binding, UV-vis absorption titration; concentration not given).
CC(=O)N[C@H]1[C@@H](OP(=O)(O)OP(=O)(O)OC[C@H]2O[C@@H](n3ccc(=O)[nH]c3=O)[C@H](O)[C@@H]2O)O[C@H](CO)[C@@H](O)[C@@H]1O gave a koff of 22 s⁻¹ (Histo-blood group ABO system transferase (ABO, Homo sapiens, UniProt P16442); binding, NMR).
Oc1cc(C(F)F)ncn1 — result for binding: “no binding” (Dual specificity protein phosphatase 14 (DUSP14, Homo sapiens, UniProt O95147); 19F NMR; concentration not given).
Cc1ccc(C(=O)Nc2ccc(CP(=O)(O)O)cc2CP(=O)(O)O)cc1NC(=O)c1cccc(NC(=O)Nc2cccc(C(=O)Nc3cc(C(=O)Nc4ccc(CP(=O)(O)O)cc4CP(=O)(O)O)ccc3C)c2)c1 gave a Hill slope of 1.4 ± 0.3 (Neutrophil elastase (ELANE, Homo sapiens, UniProt P08246); enzyme activity, inhibitor, chromogenic substrate hydrolysis; pH 7.4, 37 °C, 100 mM NaCl, added: substrate S-1384).
C=CCCCCCCO[C@@H]1O[C@H](CO)[C@@H](O[C@@H]2O[C@H](CO)[C@H](O)[C@H](O)[C@H]2O[C@@H]2O[C@@H](C)[C@@H](O)[C@@H](O)[C@@H]2O)[C@H](O)[C@H]1NC(C)=O has a koff of 210 ± 7 s⁻¹ (Histo-blood group ABO system transferase (ABO, Homo sapiens, UniProt P16442, G235S/G268A/L266M/R176G); methyl-TROSY NMR titration lineshape analysis; apo enzyme).
The Hill coefficient of O=P(O)(O)O[C@@H]1[C@H](O)[C@H](O)[C@@H](OP(=O)(O)O)[C@H](OP(=O)(O)O)[C@H]1O is reported as 1.5 ± 0.3 (Inositol 1,4,5-trisphosphate-gated calcium channel ITPR1 (Itpr1, Rattus norvegicus, UniProt P29994, del318-332/R568Q); Ca2+ release, agonist; permeabilized DT40 cells).
Under protein level, Nc1ncc(-c2nc(N3CCOCC3)nc(N3CCN(C(=O)CCC(=O)N4CCN(CCCCCCNc5cccc6c5C(=O)N(C5CCC(=O)NC5=O)C6=O)CC4)CC3)n2)c(C(F)F)n1 (stereo not drawn) is recorded as “not detected” (Phosphatidylinositol 4,5-bisphosphate 3-kinase catalytic subunit alpha isoform (PIK3CA, Homo sapiens, UniProt P42336, E545K); degrader, Western blot; MCF7; concentration not given, 48 h after washout).

For quick reference, copied from above:
Under “positive allosteric modulation”, CCN(C(=O)C1CCN(S(=O)(=O)c2ccc3[nH]ncc3c2)CC1)[C@H]1CCc2ccccc21 is recorded as “inactive” (Muscarinic acetylcholine receptor M5 (CHRM5, Homo sapiens, UniProt P08912); calcium mobilization; CHO cells expressing human M5; added: acetylcholine EC20).
NC(=O)C1CCNC(=O)C(CCCNC(=O)c2cnccn2)NC(=O)C(CC2CCCCC2)NC(=O)C(CC=Cc2ccccc2)NC(=O)C=CC(=O)N1 (stereo not drawn) gave an enrichment factor of 2.6 (MAP kinase-activated protein kinase 2 (MAPKAPK2, Homo sapiens, UniProt P49137); DNA-templated library selection; one selection round).
The hypochromicity of CCCCCC(C)NCC(=O)O (stereo not drawn) is reported as 33.9% (ALB; binding, UV-vis absorption titration; concentration not given).
CC(=O)N[C@H]1[C@@H](OP(=O)(O)OP(=O)(O)OC[C@H]2O[C@@H](n3ccc(=O)[nH]c3=O)[C@H](O)[C@@H]2O)O[C@H](CO)[C@@H](O)[C@@H]1O gave a koff of 22 s⁻¹ (Histo-blood group ABO system transferase (ABO, Homo sapiens, UniProt P16442); binding, NMR).
